Published values from different studies.
Numbered parts are unrelated; each lists some results of a single study. Positions count from the first letter of the parent shown.

Sample 1 — method: protein-binding microarray; molecule type: double-stranded DNA, one strand shown; sample: in vitro; tested at: 2200 nM top; notes: 60-bp whole probe; together with: salmon DNA 0.4 mg/ml; baseline: random background probes; direction: higher = stronger binding; all sequences stand within: GCCTAGCAC … GTCTTGATTCGCTTGACGCTGCTG
Target: Interferon regulatory factor 7, full length, phosphomimetic (IRF7, Homo sapiens, UniProt Q92985, residues 1-503, S471D/S472D/S475D/S476D/S477D/S483D/S484D/S487D)
Chain of UniProt Q92985 (whole entry, unmodified, looked up): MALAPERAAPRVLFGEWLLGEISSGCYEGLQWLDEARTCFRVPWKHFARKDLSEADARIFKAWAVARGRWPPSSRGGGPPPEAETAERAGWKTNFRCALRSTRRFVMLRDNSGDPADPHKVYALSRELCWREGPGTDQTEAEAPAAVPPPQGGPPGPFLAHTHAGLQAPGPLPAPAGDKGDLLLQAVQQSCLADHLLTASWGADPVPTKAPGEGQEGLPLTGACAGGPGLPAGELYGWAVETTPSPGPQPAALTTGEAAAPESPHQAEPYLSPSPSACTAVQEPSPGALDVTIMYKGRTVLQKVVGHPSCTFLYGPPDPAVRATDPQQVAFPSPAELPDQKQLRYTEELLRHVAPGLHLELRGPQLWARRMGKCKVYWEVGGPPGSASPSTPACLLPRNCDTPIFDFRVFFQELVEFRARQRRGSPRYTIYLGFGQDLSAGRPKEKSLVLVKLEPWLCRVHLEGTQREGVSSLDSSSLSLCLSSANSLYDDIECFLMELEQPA
Oligonucleotide	fitted relative affinity [z-score]
TTAGGTATCCGTATCGGTTAGTGCTAG	0.737
GAGGGTATCCTTTTCCTGACGTGCTAG	0.697
GACGGTATCGTCTATCGGGACGTGCTA	0.088
TCATTCCTGATCTCTGGTACTGTGCTA	1.77
TCAAGTTTCTCCTTTGTACTGTGCTAG	2.83
TCAGTTTACATTTTCCAACTGTGCTAG	3.74
TGAGGTTTCCTTATCCTTTAGTGCTAG	1.74
GACGGTTTCGGGTCTGGGGACGTGCTA	7.09
TTAGATATCTGACTGGATTAGTGCTAG	-0.17
GAGCCCGGGGTGTAAGCAACGTGCTAG	-1.21
TTAGATCTCAGTATCGATGAGTGCTAG	-0.139
CACGGACTGGGGTATCGGGACGTGCTA	-0.889
TCCAGGGCGGTGGGTGGCCCGTGCTAG	-1.35
TCATCTAGGTTTTCTGGAACTGTGCTA	0.382
GACCGTCTCCTTTTCCTGACGTGCTAG	1.87
TTAGATTTCAGGCTGGATTAGTGCTAG	-0.0817
CTAGTTGTACTTTCTATCTCTGTGCTA	4.14
CTGCCTTCAGAGCTGTCTGTGTGCTAG	0.355
TTAGGACTGGGGTTTCGGTTAGTGCTA	2.67
TTAGGTTTCGGTACCGGTTAGTGCTAG	4.97
AGAGCTGTCCTTTGCAACAGGTGCTAG	0.00796
AGTATGTTCCCTATTTAAGAGTGCTAG	1.48
TTAGATCTGGGGACTGGATTAGTGCTA	-0.286

Sample 2 — method: aptamer microarray, sandwich; molecule type: DNA with 2'F-ANA; sample: in vitro; tested at: 200 nM; together with: Cy3 exosite-II aptamer, 400 nM; direction: higher = stronger binding; oligonucleotide: GGTTGGTGTGGTTGG
Target: Prothrombin, mature alpha-thrombin (F2, Homo sapiens, UniProt P00734)
Notes: whole 15-mer aptamer, many near background
Modification	mean fluorescence intensity [a.u.]
2'F-ANA at 5 11 12 14 15	45
2'F-ANA at 1 4 5 6 7 8 9 10 12 14 15	96.7
2'F-ANA at 1 3 7 8 9 11 14 15	91.6
2'F-ANA at 1 2 5 7 9 10 11 12 13 14 15	64.6
2'F-ANA at 1 2 3 4 9 14 15	59.3
2'F-ANA at 3 5 7 9 10 11 13 14 15	69
2'F-ANA at 1 3 4 7 10 11 12 13 15	75.4
2'F-ANA at 1 5 7 10 14	159
2'F-ANA at 6 9 11 12 13 14 15	168
2'F-ANA at 1 4 5 7 8 10 11 12 14 15	101
2'F-ANA at 2 5 10 11 13 15	107
2'F-ANA at 6 8 9 10 11 12 13 14 15	130
2'F-ANA at 1 4 6 7 8 9 13 14 15	51.3
2'F-ANA at 1 6 8 9 10 11 12 14 15	52.2
2'F-ANA at 1 4 5 7 10 12 14	44
2'F-ANA at 1 2 4 5 6 7 9 10 11 15	52.2
2'F-ANA at 1 3 5 7 10	47.6
2'F-ANA at 2 3 5 6 11 13 14	49.5
2'F-ANA at 1 3 6 9 10 15	75.4
2'F-ANA at 1 2 4 6 7 8 11 13 14 15	53.6
2'F-ANA at 2 4 6 7 9 11 12 13	254
2'F-ANA at 2 3 4 7 15	730
2'F-ANA at 3 4 5 6 8 9 10 12 14	45.8
2'F-ANA at 1 5 7 8 11 12 15	85.9
2'F-ANA at 2 4 5 6 11 13 14	45.9

Sample 3 — target: CCNA2, cyclin fold, Cln2 fusion (human); method: yeast growth competition, sequencing; sample: yeast; notes: strong parent motif; baseline: not given; direction: higher = stronger binding
Parent: SAMHD1 docking peptide (human); ASKSRVQLFKDDP; partner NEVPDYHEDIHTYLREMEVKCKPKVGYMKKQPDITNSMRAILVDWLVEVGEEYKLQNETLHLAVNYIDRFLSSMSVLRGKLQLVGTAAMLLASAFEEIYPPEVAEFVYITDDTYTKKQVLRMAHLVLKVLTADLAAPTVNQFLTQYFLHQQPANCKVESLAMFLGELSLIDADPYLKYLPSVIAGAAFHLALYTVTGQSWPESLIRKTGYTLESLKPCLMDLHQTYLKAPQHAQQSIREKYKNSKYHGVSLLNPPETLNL
Change	normalised enrichment score
ASKSRVQLFYDDP [K10Y]	1.72
ALKSRVQLFKDDP [S2L]	3.03
AMKSRVQLFKDDP [S2M]	3.3
ASKSRVQLFKDIP [D12I]	2.92
ASKSRFQLFKDDP [V6F]	0.952
ASKSRVALFKDDP [Q7A]	1.56
ASKSRSQLFKDDP [V6S]	0.00266
ASKHRVQLFKDDP [S4H]	1.88
ASMSRVQLFKDDP [K3M]	1.1
ASHSRVQLFKDDP [K3H]	2.41
ASKSHVQLFKDDP [R5H]	0.561
ASKFRVQLFKDDP [S4F]	4.54
ASKSRVQGFKDDP [L8G]	0.386
ASASRVQLFKDDP [K3A]	1.31
ASKSRVQLFKDMP [D12M]	2.96
ASKSRVQLFRDDP [K10R]	2.69
ASKSRVQLFKDKP [D12K]	2.57
ASKSRAQLFKDDP [V6A]	1.21
ASKSRVQLFKDCP [D12C]	2.65
ASKPRVQLFKDDP [S4P]	1.97
ASKSNVQLFKDDP [R5N]	-0.579
ASKSRVQLVKDDP [F9V]	0.0814
ASKARVQLFKDDP [S4A]	5.33
ASKSRVQYFKDDP [L8Y]	0.336
APKSRVQLFKDDP [S2P]	3.83

Sample 4 — method: RNA Bind-n-Seq; molecule type: RNA; sample: in vitro; tested at: 1 µM; notes: whole 134-nt RNA, ends assumed; together with: 150 mM KCl; baseline: input library; direction: higher = stronger binding
Target: Ras GTPase-activating protein-binding protein 1, RRM domain (G3BP1, Homo sapiens, UniProt Q13283)
Chain of UniProt Q13283 (whole entry, looked up): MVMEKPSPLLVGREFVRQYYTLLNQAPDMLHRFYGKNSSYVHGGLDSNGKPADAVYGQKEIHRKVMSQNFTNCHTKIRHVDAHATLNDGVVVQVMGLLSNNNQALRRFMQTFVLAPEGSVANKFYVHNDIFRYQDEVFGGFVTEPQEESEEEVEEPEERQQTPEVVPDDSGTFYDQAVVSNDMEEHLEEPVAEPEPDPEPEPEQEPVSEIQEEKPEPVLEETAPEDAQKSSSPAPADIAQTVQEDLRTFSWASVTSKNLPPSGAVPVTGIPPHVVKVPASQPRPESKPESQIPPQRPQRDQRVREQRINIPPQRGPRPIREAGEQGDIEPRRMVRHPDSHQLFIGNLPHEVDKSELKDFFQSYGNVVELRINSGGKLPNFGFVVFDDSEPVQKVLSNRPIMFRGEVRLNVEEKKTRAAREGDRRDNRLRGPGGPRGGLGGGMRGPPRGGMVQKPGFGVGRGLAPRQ
All sequences stand within: GGGAGUUCUACAGUCCGACGAUC … UGGAAUUCUCGGGUGUCAAGG
Oligonucleotide	log2 enrichment
CACAGACAACACGCACCCACACAGACACAGAGGGAAGGGGUUGGGAUGGGUACAGGGUGCACAGCAGGGCGGGGUAGGACCCCAGCCCCU	-0.0615
CUCAAGUCCUGUGCUACACAUCGUAUGUACCGAAUCGGAAAAAGGUGGAAAGGAAAGUAUUAUGUUACGCCGUUCGGAUCUGCACUUCCA	-0.133
CAAGUCCUGUGCUACACAUCGUAUGUACCGAAUCGGAAAAAGGUUUGGAAAAAGGAAAGUAUUAUGUUACGCCGUUCGGAUCUGCACUUC	-0.259
UGAAUGCUGAGAAUGUUGCUGGUCACCAGAUUGCCUCUGAAACACAGAUCCUUGAGGGCUCUUUGGGAAUAUCUGUAAAGUCACACUGCA	-0.0373
GUCCUGUGCUACACAUCGUAUGUACCGAAUCGGGUUUUUUUGGGUUUGGGAAAAAGGGAAAGUAUUAUGUUACGCCGUUCGGAUCUGCAC	-0.129
UAACUUUAGAGGAGGAUCUGAUGGAUAUGGCAGUGGACGUGGAUUUGGGGAUGGCUAUAAUGGGUAUGGAGGAGGACUUGGAGGUGGCAA	-0.166
UGUGCUACACAUCGUAUGUACCGAAUCGGGGAAAAAAAGGGGAAAAAAAGGGAAAAAAAGGGAAAGUAUUAUGUUACGCCGUUCGGAUCU	0.181
CCUGUGCUACACAUCGUAUGUACCGAAUCGGGGAAAAAAGGGGAAAAAAGGAAAAAAGGGAAAGUAUUAUGUUACGCCGUUCGGAUCUGC	-0.00977
CCUGUGCUACACAUCGUAUGUACCGAAUCGGCCCCCCCGGGCCCCCCCGGCCCCCCCGGGGAAAGUAUUAUGUUACGCCGUUCGGAUCUG	-0.519
AGUCCUGUGCUACACAUCGUAUGUACCGAAUCGGUUUUUGGUUUUUGGGGUUUUUGGGAAAGUAUUAUGUUACGCCGUUCGGAUCUGCAC	-0.026
CCUGUGCUACACAUCGUAUGUACCGAAUCGGGGUUUUUUUGGGGUUUUUUUGGGGAGGGGAAAGUAUUAUGUUACGCCGUUCGGAUCUGC	0.263
UGGCCCUGGUGGCAUGCGGGGAGGAAGAGGUGGCCUCAUGGAUCGUGGUGGUCCCGGUGGAAUGUUCAGAGGUUGCCGUGGUGGAGACAG	1.45
ACCAUGCAGGUGGGCAUCUUUGGGAAGUGGGGCAAGAGGGGGAUAGGGAGGGGGGUAACACUUUGGGAACAGGUGGUCCCAGGUCGUUUC	-0.357
UGGCCCUGGUGGCAUGCGGGGAGGAAGAGGUGGCCUCAUGGAUCGUGGUGGUCCCGGUGGAAUGUUCAGAGGUGGCCGUGGAGGAGACAG	1.89

Excerpt of the above (sample 3):
Change	normalised enrichment score
AMKSRVQLFKDDP [S2M]	3.3
ASKARVQLFKDDP [S4A]	5.33
ASKSRVALFKDDP [Q7A]	1.56
ASKSHVQLFKDDP [R5H]	0.561
ASKSRAQLFKDDP [V6A]	1.21
ALKSRVQLFKDDP [S2L]	3.03
ASKFRVQLFKDDP [S4F]	4.54
ASKSRFQLFKDDP [V6F]	0.952
ASKSRVQLFYDDP [K10Y]	1.72
ASKSRVQYFKDDP [L8Y]	0.336
ASKSNVQLFKDDP [R5N]	-0.579
ASKSRVQGFKDDP [L8G]	0.386
